Measurements from different studies.
Protocols differ between the studies behind these lines. ± marks the error that the study gave.
Ugcg: Ceramide glucosyltransferase (Ugcg, Mus musculus, UniProt O88693)
RAD52: DNA repair protein RAD52 homolog (RAD52, Homo sapiens, UniProt P43351)
DRD3: D(3) dopamine receptor (DRD3, Homo sapiens, UniProt P35462)

SMILES = O=C(COCC(F)F)Nc1ccc([C@H]2[C@@H](F)[C@@H](F)C[C@@H](F)[C@H]2F)cc1; test = hepatocyte stability; system = cryopreserved human hepatocytes; conditions = 1 µM; endpoint = hepatic clearance; value = 19 mL/min/kg
SMILES = Cc1ccc(C(=O)Nc2ccnc(S(N)(=O)=O)c2)c(N2CCCC(F)(F)CC2)n1; tested on = Sodium channel protein type 11 subunit alpha (Homo sapiens, UniProt Q9UI33); test = ion current, inhibitor, patch clamp; endpoint = IC50; value = > 33 µM
SMILES = C=CC(=O)Nc1ccc(OC)c(-c2c[nH]c3ncc(-c4cncc(C(=O)N(C)C)c4)cc23)c1; tested on = Tyrosine-protein kinase ABL1 (ABL1, Homo sapiens, UniProt P00519); test = kinase activity, inhibitor, HTRF; conditions = 1 h preincubation, with: ATP 20 µM; endpoint = IC50; value = 0.621 ± 0.116 µM
SMILES = CC(C)(C)CCOCCCCCN1C[C@H](O)[C@@H](O)[C@H](O)[C@H]1CO; tested on = Ugcg; test = enzyme activity, inhibitor; system = RAW264.7; conditions = in situ, with: C6-NBD-ceramide; endpoint = IC50; value = 0.76 µM
SMILES = Cc1nn(-c2cccc(N)c2)c(=O)c2cnc(Nc3ccc(N4CCNCC4)cc3)nc12; tested on = Hepatocyte growth factor receptor (MET, Homo sapiens, UniProt P08581, M1250T); test = enzyme activity, inhibitor; endpoint = IC50; value = > 10 µM
SMILES = Cc1cnc(Nc2ccc(C3CCN(C)CC3)c(F)c2)nc1Nc1ccc(Cl)c(NS(=O)(=O)C(C)(C)C)c1; tested on = Serine/threonine-protein kinase ULK2 (ULK2, Homo sapiens, UniProt Q8IYT8); test = enzyme activity, inhibitor; endpoint = IC50; value = 3.06 µM
SMILES = OC[C@H]1[C@@H](O)[C@H](O)[C@@H](O)CN1CCCCCOCc1ccccc1; tested on = Ugcg; test = enzyme activity, inhibitor, fluorescence; endpoint = IC50; value = 0.2 µM
SMILES = COc1ccccc1Nc1nc(NCCCO)c2ccccc2n1; tested on = RAD52; test = ssDNA annealing, fluorescence quenching; endpoint = IC50; value = 2.9 µM
SMILES = Cn1c(S)nnc1-c1ccc(F)cc1; tested on = CUGBP Elav-like family member 2, residues 40-212 (Homo sapiens, UniProt O95319); test = protein-RNA binding, inhibitor, fluorescence polarization; conditions = 200 nM protein, with: 10 nM RNA; endpoint = IC50; value = 1.76 ± 0.26 µM
SMILES = CCCCOc1ccc(CC(=O)NO)cc1; tested on = Aldehyde dehydrogenase X, mitochondrial (ALDH1B1, Homo sapiens, UniProt P30837); test = enzyme activity, inhibitor; endpoint = IC50; value = 0.36 µM
SMILES = COc1cc(O)c2c(c1)CCC21C=CC(=O)CC1 (centres unmarked); tested on = Sucrase-isomaltase, intestinal (Si, Rattus norvegicus, UniProt P23739); test = enzyme activity, inhibitor, absorbance; endpoint = IC50; value = 1450 µM
SMILES = CC(C)Cc1ccc(C(C)C(=O)NC(CCCCNC(=O)CCOCCOCCOCCOCCOCCOCCNC(=O)CN2CCN(CC(=O)O)CCN(CC(=O)O)CCN(CC(=O)O)CC2)C(=O)Nc2cccc3c(C(=O)NCC(=O)N4CC(F)(F)C[C@H]4C#N)ccnc23)cc1 (some centres unmarked); tested on = Prolyl endopeptidase FAP (FAP, Homo sapiens, UniProt Q12884); test = enzyme activity, inhibitor, fluorescence; endpoint = IC50; value = 0.00142 µM
SMILES = COc1cc(N2CCOCC2)ccc1Nc1ncc(Cl)c(Nc2ccccc2NS(C)(=O)=O)n1; tested on = Epidermal growth factor receptor (EGFR, Homo sapiens, UniProt P00533, C797S/del746-750/T790M); test = kinase activity, inhibitor; endpoint = IC50; value = 0.00166 µM
SMILES = O=C(CC(F)(F)F)Nc1ccc([C@H]2[C@@H](F)[C@@H](F)C[C@@H](F)[C@H]2F)cc1; test = hepatocyte stability; system = cryopreserved human hepatocytes; conditions = 1 µM; endpoint = hepatic clearance; value = 17 mL/min/kg
SMILES = CC(C)COCCCCCN1C[C@H](O)[C@@H](O)[C@H](O)[C@H]1CO; tested on = Ugcg; test = enzyme activity, inhibitor; system = RAW264.7; conditions = in situ, with: C6-NBD-ceramide; endpoint = IC50; value = 4 µM
SMILES = COCC1CN(C2CCN(c3cc(OC)c(Nc4ncc(Br)c(Nc5ccc6c(c5P(C)(C)=O)OCCO6)n4)cc3C)CC2)C1; tested on = Epidermal growth factor receptor (EGFR, Homo sapiens, UniProt P00533, C797S/L858R); test = enzyme activity, inhibitor, TR-FRET; endpoint = IC50; value = 0.00092 µM
SMILES = Cc1cc(NC2CCN(C)CC2)ccc1-c1cc2c(N3CCC[C@H](C(=O)NCc4ccc(OC(F)(F)F)cc4)C3)ncnc2[nH]1; tested on = Hepatocyte growth factor receptor (MET, Homo sapiens, UniProt P08581); test = enzyme activity, inhibitor, mobility shift; endpoint = IC50; value = 4.18 µM
SMILES = Cc1c(C(=O)Nc2ccc(S(=O)(=O)N(C)C3CCN(C)CC3)cc2)oc2c(Cl)cccc12; tested on = RAD52; test = ssDNA annealing, fluorescence quenching; endpoint = IC50; value = 9.8 µM
SMILES = COc1cc(C(=O)N[C@H](c2ccccc2)c2ccc3[nH]cnc3c2)c2ccccc2n1; tested on = Cytosolic phospholipase A2 (PLA2G4A, Homo sapiens, UniProt P47712); test = enzyme activity, inhibitor, fluorescence; endpoint = IC50; value = 2.32 µM
SMILES = CCn1nc(Cl)c2c1-c1cnc(N)c(c1)O[C@H](C)c1cc(F)ccc1-c1nn(C)cc1C2; tested on = High affinity nerve growth factor receptor (NTRK1, Homo sapiens, UniProt P04629); test = enzyme activity, inhibitor; conditions = with: 1 mM ATP; endpoint = IC50; value = 0.155 µM
SMILES = OC[C@@H]1[C@@H](O)[C@H](O)[C@@H](O)CN1CCCCCOCc1ccc(-c2ccc3c(c2)OCCO3)cc1; tested on = Ugcg; test = enzyme activity, inhibitor, fluorescence; endpoint = IC50; value = 0.04 µM
SMILES = Cc1cccc(NS(=O)(=O)c2c(C)[nH]c(C)c2C(=O)N2CCCC2)c1; tested on = DRD3; test = Go activation, antagonist, BRET; conditions = with: dopamine; endpoint = IC50; value = > 100 µM
SMILES = OC[C@@H]1[C@@H](O)[C@H](O)[C@@H](O)CN1CCCCCOCc1ccc(-c2cccc(F)c2)cc1; tested on = Ugcg; test = enzyme activity, inhibitor, fluorescence; endpoint = IC50; value = 0.025 µM
SMILES = COc1cc(OC(=O)c2ccc([N+](=O)[O-])cc2)ccc1OC(=O)c1ccc([N+](=O)[O-])cc1; tested on = Apelin receptor (APLNR, Homo sapiens, UniProt P35414); test = β-arrestin recruitment, antagonist; endpoint = IC50; value = > 100 µM
SMILES = CCc1ccc(NS(=O)(=O)c2c(C)[nH]c(C)c2C(=O)N2CCCC2)cc1; tested on = DRD3; test = Go activation, antagonist, BRET; conditions = with: dopamine; endpoint = IC50; value = 11 ± 0.2 µM
SMILES = O=C(CCCCCN1C[C@H](O)[C@@H](O)[C@H](O)[C@H]1CO)NC12CC3CC(CC(C3)C1)C2; tested on = Ugcg; test = enzyme activity, inhibitor, fluorescence; endpoint = IC50; value = 1 µM
SMILES = COc1ccc(Nc2cc(NC3CC3)n3ncc(C#N)c3n2)cc1; tested on = Casein kinase II subunit alpha' (CSNK2A2, Homo sapiens, UniProt P19784); test = target engagement in cells, BRET; endpoint = IC50; value = 1 µM
SMILES = Nc1ncc(-c2cc(-c3cnn(CC(F)(F)F)c3)ncc2F)nc1C(=O)NC1CNCC(F)C1 (centres unmarked); tested on = PAK7; test = KINOMEscan; conditions = 1 µM; how to read = relative to: DMSO control; endpoint = remaining binding; value = 73%
SMILES = CCCCCCCOCCCCCN1C[C@H](O)[C@@H](O)[C@H](O)[C@H]1CO; tested on = Ugcg; test = enzyme activity, inhibitor, C6-NBD-ceramide in situ; system = RAW264.7; conditions = with: C6-NBD-ceramide; endpoint = IC50; value = 0.3 µM
SMILES = C=CC(=O)Nc1cccc(Cn2ncc3cnc(Nc4cnn(CCOC)c4)nc32)c1; tested on = DYRK1B human; test = binding, KINOMEscan; conditions = 100 nM; how to read = lower = stronger binding; endpoint = percent of control; value = 85%
SMILES = COC1CN([C@H]2CC[C@H]([C@@]3(C)Oc4c(Cl)cc(C(=O)NCc5c(SC)cc(C)[nH]c5=O)c(C)c4O3)CC2)C1; test = RNA-seq, refers to: MTSS2 mouse homolog; system = mouse, HT-1376 xenograft, whole blood; conditions = dose not given; how to read = relative to: vehicle; endpoint = log2 fold change; value = 1.47
SMILES = C=C(NC(=O)c1csc(-c2nc3c(cc2O)-c2nc(cs2)C(=O)NC(C(C)O)C(=O)NC(=C(C)OC)c2nc(cs2)C(=O)NC2c4nc(cs4)C(=O)NC(COC(=O)c4c5c6c(cccc6n4O)COC(=O)C(OC4CC(C)(O)C(N(C)C)C(C)O4)C2OC5)c2nc-3cs2)n1)C(N)=O (centres unmarked); system = cynomolgus monkey, both sexes, plasma; conditions = intravenous infusion, 1.5 mg/kg twice daily, 0 to 30 h; endpoint = Cmax; value = 15200 ng/mL
SMILES = C=CC(=O)Nc1cc(Nc2ncnc(Nc3cc(Cl)c(F)cc3C(C)(C)O)n2)c(OC)cc1N1CCC(N(C)C)C1 (centres unmarked); tested on = Epidermal growth factor receptor (EGFR, Homo sapiens, UniProt P00533); test = EGFR phosphorylation, inhibitor; system = A-431; endpoint = IC50; value = 0.012 µM
SMILES = CSCC[C@H](N)C(=O)N[C@@H](CC(=O)O)C(=O)N[C@@H](CC(C)C)C(=O)N1CCC[C@H]1C(=O)N[C@@H](Cc1ccccc1)C(=O)N[C@H](CCC(=O)O)C(=O)N[C@@H](Cc1ccccc1)C(N)=O; tested on = Transcriptional regulator PlcR (Bacillus thuringiensis, UniProt A0ACM8Q0N2); test = reporter gene, inhibitor, lacZ reporter; system = 407 Cry−; endpoint = IC50; value = 0.213 ± 0.02 µM
SMILES = OC[C@@H]1[C@@H](O)[C@H](O)[C@@H](O)CN1CCCCCOCc1ccc(-c2ccc3c(c2)OCO3)cc1; tested on = Ugcg; test = enzyme activity, inhibitor, fluorescence; endpoint = IC50; value = 0.025 µM
SMILES = O[C@H]1[C@H](O)[C@@H](O)c2[nH]cnc2[C@@H]1O; tested on = Lysosomal alpha-glucosidase (GAA, Homo sapiens, UniProt P10253); conditions = pH 4.8; endpoint = IC50; value = > 100 µM
SMILES = Fc1ccc(Nc2nc(NC3CCCCC3)c3cc(C(F)(F)F)ccc3n2)cc1F; tested on = Beta-2 adrenergic receptor (ADRB2, Homo sapiens, UniProt P07550, L155C); test = β-arrestin2 recruitment, antagonist, BRET; system = HEK293; conditions = mutant L155C, with: isoprenaline 1 µM; endpoint = IC50; value = 0.631 µM
SMILES = COc1ccc(OC)c(Nc2nc(NCCO)c3ccccc3n2)c1; tested on = RAD52; test = D-loop formation; conditions = with: RAD52 450 nM; endpoint = IC50; value = 8.8 ± 0.42 µM

For quick reference, copied from above:
SMILES = COc1ccc(Nc2cc(NC3CC3)n3ncc(C#N)c3n2)cc1; tested on = Casein kinase II subunit alpha' (CSNK2A2, Homo sapiens, UniProt P19784); test = target engagement in cells, BRET; endpoint = IC50; value = 1 µM
SMILES = Nc1ncc(-c2cc(-c3cnn(CC(F)(F)F)c3)ncc2F)nc1C(=O)NC1CNCC(F)C1 (centres unmarked); tested on = PAK7; test = KINOMEscan; conditions = 1 µM; how to read = relative to: DMSO control; endpoint = remaining binding; value = 73%
SMILES = O=C(COCC(F)F)Nc1ccc([C@H]2[C@@H](F)[C@@H](F)C[C@@H](F)[C@H]2F)cc1; test = hepatocyte stability; system = cryopreserved human hepatocytes; conditions = 1 µM; endpoint = hepatic clearance; value = 19 mL/min/kg
SMILES = Cc1nn(-c2cccc(N)c2)c(=O)c2cnc(Nc3ccc(N4CCNCC4)cc3)nc12; tested on = Hepatocyte growth factor receptor (MET, Homo sapiens, UniProt P08581, M1250T); test = enzyme activity, inhibitor; endpoint = IC50; value = > 10 µM
